Results from different studies.
Compare with care: the assays were run in different laboratories. Numbers after ± are the reported error.
OPG122: mRNA-decapping protein OPG122 (OPG122, Vaccinia virus, UniProt P04312)
rep papain-like protease: Replicase polyprotein 1ab, papain-like protease (rep, Middle East respiratory syndrome-related coronavirus, UniProt K9N7C7)
bglR: Beta-glucuronidase (bglR, Clostridium perfringens, UniProt Q8XP19)
Replicase polyprotein 1a papain-like protease: Replicase polyprotein 1a, papain-like protease (Severe acute respiratory syndrome coronavirus 2, UniProt P0DTC1)
Lethal factor: Lethal factor (Bacillus anthracis, UniProt P15917)
SCN9A: Sodium channel protein type 9 subunit alpha (SCN9A, Homo sapiens, UniProt Q15858)

Nc1nc2c(nc(I)n2C2OC(COP(=O)(O)OP(=O)(O)OP(=O)(O)O)C(O)C2O)c(=O)[nH]1 (stereo not shown)  IC50 (OPG122): > 200 µM
COc1cccc2[nH]c(C(=O)NC(CC(C)C)C(=O)NC(CC3CCCNC3=O)C(=O)COC(=O)c3c(C)cc(C)nc3C)cc12 (stereo not shown)  IC50 (Cathepsin S (CTSS, Homo sapiens, UniProt P25774); enzyme activity, inhibitor; pH 5, with preincubation): 0.016 µM
CC(C)(O)[C@@H]1CC[C@](C)([C@H]2[C@@H](O)C[C@@]3(C)[C@@H]4C[C@H](O)[C@H]5C(C)(C)[C@@H](O)CC[C@@]56C[C@@]46CC[C@]23C)O1  IC50 (Spike glycoprotein (Severe acute respiratory syndrome coronavirus 2, UniProt P0DTC2); spike RBD-ACE2 binding, inhibitor, ELISA): > 40 µM
CCC(C(=O)Nc1ccccc1F)n1cccc2nc(SCc3ccc(F)cc3)nc1-2 (stereo not shown)  IC50 (rep papain-like protease; enzyme activity, inhibitor): > 100 µM
Nc1nc2c(ncn2C2OC(COP(=O)(O)OP(=O)(O)OP(=O)(O)O)C(O)C2O)c(=O)[nH]1 (stereo not shown)  IC50 (OPG122): 22 µM
CN(C)c1nc2sc3c(N4CCNCC4)nnnc3c2c2c1CCCC2  IC50 (bglR): 0.049 ± 0.002 µM
C[n+]1cn(C2OC(COP(=O)(O)OP(=O)(O)O)C(O)C2O)c2nc(N)[nH]c(=O)c21 (stereo not shown)  IC50 (OPG122): 21 µM
CCCCCCCC(O)CC(=O)CCc1ccc(O)c(OC)c1 (stereo not shown)  IC50 (Transcriptional activator VP30, with NP peptide (VP30, Zaire ebolavirus, UniProt Q05323); Ebola virus): 62 µM
Cc1ccc(N2CCC(N(C)C)CC2)cc1C(=O)NC1(c2ccc3c4c(cccc24)CC3)CC1  IC50 (Replicase polyprotein 1a papain-like protease; enzyme activity, inhibitor): 0.115 µM
CC[C@H](C)[C@@H]1NC(=O)[C@@H]2CSSC[C@H](NC(=O)[C@H](CCCNC(=N)N)NC(=O)[C@@H]3CSSC[C@H](NC1=O)C(=O)N[C@@H]([C@@H](C)O)C(=O)N[C@@H](CCCNC(=N)N)C(=O)NCC(=O)N[C@@H](Cc1ccccc1)C(=O)N3)C(=O)N[C@@H](CC(C)C)C(=O)N[C@H]1CSSC[C@H](NC(=O)[C@H](C(C)C)NC(=O)CNC(=O)[C@H](CCCNC(=N)N)NC(=O)[C@H](CCCNC(=N)N)NC1=O)C(=O)N[C@@H](CCCNC(=N)N)C(=O)N2  IC50 (Lethal factor; enzyme activity, inhibitor): 0.384 ± 0.033 µM
CN1CCN(c2nnnc3c2sc2nc(N4CCOCC4)c4c(c23)CCCC4)CC1  IC50 (bglR): 5 ± 1 µM
CC(=O)N[C@H]1CC(=O)NCCCC[C@@H](C(N)=O)NC(=O)[C@@H](Cc2ccccc2)NC(=O)[C@@H]2CCCN2C(=O)[C@H](CC(=O)O)NC(=O)[C@H](CC(=O)O)NC(=O)[C@H](Cc2ccc(CP(=O)(O)O)cc2)NC(=O)[C@H](CCC(=O)O)NC1=O  IC50 (Secreted effector protein (Yersinia pestis, UniProt O68720)): ~100 µM
CC[C@H](C)[C@@H]1NC(=O)[C@@H]2CSSC[C@H](NC(=O)[C@H](CCCNC(=N)N)NC(=O)[C@@H]3CSSC[C@H](NC1=O)C(=O)N[C@@H]([C@@H](C)O)C(=O)N[C@@H](CCCNC(=N)N)C(=O)NCC(=O)N[C@@H](Cc1ccccc1)C(=O)N3)C(=O)N[C@@H](Cc1ccccc1)C(=O)N[C@H]1CSSC[C@H](NC(=O)[C@H](CO)NC(=O)[C@H](CO)NC(=O)[C@H](CCCNC(=N)N)NC(=O)CNC1=O)C(=O)N[C@@H](CC(=O)O)C(=O)N2  IC50 (Lethal factor; enzyme activity, inhibitor): 1.2 ± 0.084 µM
CC(C)C[C@H](NC(=O)[C@H](CC(=O)O)NC(=O)[C@H](Cc1ccc(O)cc1)NC(=O)[C@H](C)NC(=O)[C@@H]1CSSC[C@@H]2NC(=O)[C@H](CCCCN)NC(=O)[C@H](CC(=O)O)NC(=O)[C@H](CC(N)=O)NC(=O)[C@H](CO)NC(=O)[C@@H]3CCCN3C(=O)[C@H](CC(N)=O)NC(=O)[C@@H]3CSSC[C@H](NC(=O)[C@H](C(C)C)NC(=O)[C@H](CC(C)C)NC(=O)[C@H](CO)NC(=O)[C@H](CO)NC(=O)[C@H](CO)NC(=O)[C@H](CCCCN)NC(=O)[C@H](CSSC[C@H](NC(=O)[C@H](C)N)C(=O)N[C@@H](CC(C)C)C(=O)NCC(=O)N[C@@H](Cc4ccccc4)C(=O)NCC(=O)N[C@@H](CCC(=O)O)C(=O)N[C@@H](CCCCN)C(=O)N3)NC2=O)C(=O)N[C@@H](CO)C(=O)N[C@@H](CCC(N)=O)C(=O)N[C@@H](CCCCN)C(=O)N[C@@H](Cc2c[nH]cn2)C(=O)N[C@@H](CCCCN)C(=O)N[C@@H](Cc2c[nH]c3ccccc23)C(=O)N1)C(=O)O  IC50 (SCN9A; ion current, inhibitor, patch clamp): > 30 µM
O=C(Nc1ccc(-c2ccccc2)cc1)N[C@H]1[C@H]([C@H](O)[C@H](O)CO)OC(C(=O)O)=C[C@@H]1O  IC50 (Sialidase (nanI, Clostridium perfringens, UniProt A0A0H2YQR1); enzyme activity, inhibitor): 36 µM
CC(C)C[C@@H]1NC(=O)[C@H](CCCNC(=N)N)NC(=O)[C@@H]2CCCN2C(=O)[C@@H]2CSSC[C@H](NC(=O)CNC(=O)[C@@H]3CCCN3C(=O)[C@H](CCCCN)NC(=O)[C@H](CC(=O)O)NC(=O)[C@@H](NC(=O)CN)C(C)C)C(=O)N[C@@H](CCCNC(=N)N)C(=O)N[C@@H](Cc3ccc(O)cc3)C(=O)N[C@@H](CC(C)C)C(=O)N[C@@H](Cc3ccccc3)C(=O)NCC(=O)NCC(=O)N[C@H]3CSSC[C@H](NC(=O)CNC1=O)C(=O)N[C@@H](CCCCN)C(=O)NCC(=O)N[C@@H](CCCCN)C(=O)NCC(=O)N[C@@H](Cc1c[nH]cn1)C(=O)N[C@@H](CC(=O)O)C(=O)N[C@@H](Cc1ccc(O)cc1)C(=O)N[C@H](C(=O)N[C@@H](C)C(=O)N[C@@H](Cc1c[nH]c4ccccc14)C(=O)N[C@@H](CC(=O)O)C(=O)NCC(=O)N[C@H](C(=O)N[C@@H](Cc1ccccc1)C(=O)N[C@@H](CO)C(=O)N[C@@H](CC(=O)O)C(=O)O)[C@@H](C)O)CSSC[C@H](NC(=O)[C@H](CC(=O)O)NC(=O)[C@H](CC(=O)O)NC(=O)[C@H](CC(=O)O)NC(=O)[C@H](CO)NC(=O)[C@H](CCCCN)NC3=O)C(=O)N2  IC50 (SCN8A (Homo sapiens, UniProt Q9UQD0); peak sodium current, inhibitor, automated patch clamp; HEK293; holding potential -100 mV, added: 0.1 % BSA): 0.832 µM
CCC(C(=O)Nn1cccc1)n1cccc2nc(SCc3ccc(F)cc3)nc1-2 (stereo not shown)  IC50 (rep papain-like protease; enzyme activity, inhibitor): > 100 µM
COc1ccc(Cn2cnc3cc(C)c(C)cc32)cc1  IC50 (Enoyl-[acyl-carrier-protein] reductase [NADH] (Francisella tularensis subsp. tularensis, UniProt Q5NGQ3); inhibitor): 0.5 µM
Cc1ccc(N)cc1C(=O)NC(C)(C)c1ccc2c3c(cccc13)CC2  IC50 (Replicase polyprotein 1a papain-like protease; enzyme activity, inhibitor): 6.9 µM
Nc1ncnc2c1ncn2C1CCC(COP(=O)(O)OP(=O)(O)OP(=O)(O)O)O1 (stereo not shown)  IC50 (OPG122): 166 µM
CC(C)C[C@@H]1NC(=O)[C@H](CO)NC(=O)[C@H](CCCCN)NC(=O)[C@@H]2CSSC[C@H](N)C(=O)N[C@@H](CC(C)C)C(=O)NCC(=O)N[C@@H](Cc3ccccc3)C(=O)NCC(=O)N[C@@H](CCC(=O)O)C(=O)N[C@@H](CCCCN)C(=O)N[C@H]3CSSC[C@H](NC(=O)[C@H](C(C)C)NC1=O)C(=O)N[C@@H](CCC(N)=O)C(=O)N[C@@H](CCCCN)C(=O)N[C@@H](Cc1c[nH]cn1)C(=O)N[C@@H](CCCCN)C(=O)N[C@@H](Cc1c[nH]c4ccccc14)C(=O)N[C@H](C(=O)N[C@@H](CCCCN)C(=O)N[C@@H](Cc1ccc(O)cc1)C(=O)O)CSSC[C@H](NC(=O)[C@H](CCCCN)NC(=O)[C@H](CC(=O)O)NC(=O)[C@H](CC(N)=O)NC(=O)[C@H](CC(N)=O)NC3=O)C(=O)N2  IC50 (SCN9A; ion current, inhibitor, patch clamp): 39.6 µM
CCC(CC)O[C@@H]1C=C(C(=O)O)C[C@H](NCc2ccc(N3CC[C@H](F)C3)cc2)[C@H]1NC(C)=O (stereo in doubt)  IC50 (Neuraminidase (NA, Influenza A virus, UniProt P03468); enzyme activity, inhibitor): 0.23 µM
